Measurements pooled from the literature.
A part holds a random share of what one study measured.

Set 1 — method: protein-binding microarray; form: double-stranded DNA, one strand shown; matrix: in vitro; tested at: 2200 nM top; setting: 60-bp whole probe; with: salmon DNA 0.4 mg/ml; baseline: random background probes; direction: higher = stronger binding; endpoint: fitted relative affinity; shared flanks, not repeated: GCCTAGCAC … GTCTTGATTCGCTTGACGCTGCTG
Target: Interferon regulatory factor 7, full length, phosphomimetic (IRF7, Homo sapiens, UniProt Q92985, residues 1-503, S471D/S472D/S475D/S476D/S477D/S483D/S484D/S487D)
Construct (chain): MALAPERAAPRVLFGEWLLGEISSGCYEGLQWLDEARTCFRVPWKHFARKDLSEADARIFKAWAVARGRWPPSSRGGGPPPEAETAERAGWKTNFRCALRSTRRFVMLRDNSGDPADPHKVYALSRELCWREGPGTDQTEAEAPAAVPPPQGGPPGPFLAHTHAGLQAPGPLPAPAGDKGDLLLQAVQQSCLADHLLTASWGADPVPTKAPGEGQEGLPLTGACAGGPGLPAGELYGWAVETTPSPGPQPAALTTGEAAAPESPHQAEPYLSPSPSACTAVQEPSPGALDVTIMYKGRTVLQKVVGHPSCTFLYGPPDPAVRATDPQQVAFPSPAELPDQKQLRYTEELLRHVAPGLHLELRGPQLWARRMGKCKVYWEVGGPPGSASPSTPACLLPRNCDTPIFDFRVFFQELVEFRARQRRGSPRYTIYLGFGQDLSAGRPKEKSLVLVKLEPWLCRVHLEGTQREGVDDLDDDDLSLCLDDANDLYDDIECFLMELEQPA
GATGAATAAAGCGTTGCTGCGTGCTAG: -0.439 z-score
GACGAACTTAGTTTCGAGACGTGCTAG: 3.74 z-score
GAATTTCCCACTTTCACTTCGTGCTAG: 8.68 z-score
TACCCTTTGAAAGTTGTTTTAGTGCTA: 0.594 z-score
GACGGTATCTGTTTCGGGACGTGCTAG: 2.55 z-score
GACGATCTCAGTACCGAGACGTGCTAG: 0.444 z-score
TTAGGTTTCGGGTTACGGTTAGTGCTA: 10.9 z-score
TTAGGTATCGACTATAGGTTAGTGCTA: -0.112 z-score

Set 2 — method: universal PBM; form: double-stranded DNA, one strand shown; matrix: in vitro; tested at: not given; direction: higher = stronger binding; endpoint: E-score
Target: Sal-like protein 4, full length isoform B (SALL4, Homo sapiens, UniProt Q9UJQ4-2, residues 1-616)
Setting: 8-mer, flanks averaged, mean of replicates
AGTTTGCA: -0.00074
GTCTTCAA: 0.118
AGGTGTCG: -0.16
AATGGTTA: 0.198
CCGGCTAG: -0.309

Set 3 — method: RNA Bind-n-Seq; form: RNA; matrix: in vitro; tested at: 20 nM; setting: 6-mer, flanks averaged, single round; with: 150 mM LiCl; baseline: input library; direction: higher = stronger binding; endpoint: 6-mer enrichment (R)
Target: TAR DNA-binding protein 43, full length, His tag (TARDBP, Homo sapiens, UniProt Q13148, residues 1-414)
UAGCUG: 0.946
UCGGGC: 1
CGGGAG: 1.07
UAUCCA: 0.864
GAGCUC: 0.942
ACUACU: 0.854

Further values, each from its own experiment
PhoQ, residues 284 288 289 292 302 303 GANMMA  fold induction (PhoP, residues 12 14 15 18 19 AWHSL (Escherichia coli, UniProt P23836); Sort-seq, refers to: YFP reporter; E. coli; PhoQ-PhoP variant library, with: 10 µM Mg2+; baseline: high Mg2+ state, higher = stronger signaling): 2.47

A few entries again (set 2):
CCGGCTAG: -0.309
AATGGTTA: 0.198
